Published values of several laboratories.
Protocols differ between the studies behind these lines. Values joined by “and” are separate records of one study, mostly repeats; a detail may differ. ± gives the spread as reported.

Structure (SMILES) = CC(C)C[C@H](NC(=O)[C@H](CCCCN)NC(=O)OCC1c2ccccc2-c2ccccc21)C(=O)N[C@H](C(=O)N[C@@H](Cc1ccccc1)C(=O)N[C@@H](Cc1ccccc1)C(=O)N[C@@H](CCCCN)C(=O)NCC(=O)N[C@@H](Cc1ccccc1)C(=O)N[C@@H](C)C(=O)N[C@@H](Cc1c[nH]c2ccccc12)C(=O)N[C@@H](CC(N)=O)C(=O)N[C@H](C(=O)N[C@H]1CSSC[C@@H](C(=O)N[C@@H](Cc2c[nH]cn2)C(=O)N[C@@H](CCCNC(=N)N)C(=O)N[C@@H](CCCNC(=N)N)C(=O)N[C@@H](C)C(=O)N[C@@H](CC(N)=O)C(N)=O)NC(=O)[C@H](C(C)C)NC(=O)[C@H](CCCNC(=N)N)NC(=O)[C@H](C(C)C)NC(=O)CNC(=O)[C@H](CC(N)=O)NC(=O)[C@H](CCCNC(=N)N)NC(=O)[C@H](Cc2ccc(O)cc2)NC(=O)[C@H](C(C)C)NC1=O)C(C)C)C(C)C; test system = ICR mice, blood; setting = intraductal mammary, 5 mg/kg, day 5; endpoint = plateletcrit; value = 0.03%
Structure (SMILES) = C[C@]12CC[C@H](O)CC1=CC[C@@H]1[C@@H]2CC[C@]2(C)C(n3cnc4ccccc43)=CC[C@@H]12.Cl; test system = male CD-1 mice, plasma; setting = 10 mg/kg oral vs 1 mg/kg intravenous; endpoint = oral bioavailability; value = 5.88%
Structure (SMILES) = NCCCC[C@@H]1NC(=O)[C@@H](Cc2c[nH]c3ccccc23)NC(=O)[C@H](c2ccccc2)NC(=O)[C@@H]2C[C@@H](OC(=O)NCCN)CN2C(=O)[C@H](Cc2ccccc2)NC(=O)[C@H](Cc2ccc(OCc3ccccc3)cc2)NC1=O; test system = healthy human volunteers; setting = 1950 µg twice daily; endpoint = subjects with injection-site erythema; value = 90%
Structure (SMILES) = CN(C(=O)n1cnc(-c2ccc[n+]([O-])c2)c1)C1CCCCC1; test system = Wistar rat, cerebral cortex; setting = oral, 10 mg/kg, 1 h, single dose; endpoint = concentration; value = 249 ± 33.2 ng/g
Structure (SMILES) = O=C(Nc1cccc(B(O)O)c1)c1cccc(OCc2ccccc2)c1; assay = PAMPA; test system = pre-coated trilayer membrane; setting = 200 µM, 5 h, pH 7.4, donor plate, PBS; endpoint = donor concentration; value = 126 ± 14.7 µM
Structure (SMILES) = O=C(O)CCC(CP(=O)(O)O)C(=O)O (centres unmarked); test system = rat plasma; setting = 0.3 µg/mL, freeze-thaw cycle 3 at -80 °C; endpoint = measured concentration; value = 0.355 ± 0.009 µg/mL
Structure (SMILES) = CO[C@H]1C[C@@H]2CC[C@@H](C)[C@@](O)(O2)C(=O)C(=O)N2CCCC[C@H]2C(=O)O[C@H]([C@H](C)C[C@@H]2CC[C@@H](OC(=O)NCCOCCOCCOCCOCCOCCOCCOCCOCCC(=O)N3CCc4cc(Cn5nc(-c6ccc7oc(N)nc7c6)c6c(N)ncnc65)ccc4C3)[C@H](OC)C2)C[C@@H](O)[C@H](C)/C=C(\C)[C@@H](O)[C@@H](OC)C(=O)[C@H](C)C[C@H](C)/C=C/C=C/C=C/1C; assay = dose-escalation trial; test system = patients with advanced solid tumours; setting = intravenous, 1.6 mg/3 mg weekly, grade ≥3; endpoint = decreased appetite leading to dose reduction; value = 0%
Structure (SMILES) = C=CCNc1c(O)cc2c(O)c1C[C@@H](C)C[C@H](OC)[C@H](O)[C@@H](C)/C=C(\C)[C@H](OC(N)=O)[C@@H](OC)/C=C\C=C(/C)C(=O)N2; test system = unresectable or metastatic STS, GIST, other; setting = intravenous, 225 mg/m^2; endpoint = patients with myalgia TEAE; value = 0%
Structure (SMILES) = Cn1cncc1-c1c(F)cncc1NC(=O)c1c(N)nn2cc(F)cnc12; test system = human patients; setting = oral, 130 mg once daily, 21 days; endpoint = dose-limiting toxicity upper GI haemorrhage; value = 0%
Structure (SMILES) = C=CC(=O)Nc1cc(Nc2nccc(Nc3cc(Cl)c(F)cc3C(C)(C)O)n2)c(OC)cc1N1CC[C@@H](N(C)C)C1; test system = human patients; setting = oral, 400 mg, treatment-emergent adverse events; endpoint = patients with diarrhoea; value = 85%
Structure (SMILES) = O=C(Nc1ccccc1)C1CCN(C(=O)Oc2cccnc2)CC1; assay = measured: musculoskeletal disorders; test system = healthy women; setting = oral, 20 mg, 7 days; endpoint = subjects with adverse event; value = 21.4%
Structure (SMILES) = COc1cc2c(Oc3ccc4[nH]c(C)cc4c3F)ccnc2cc1OCC1(N)CC1; test system = paediatric recurrent refractory sarcoma; setting = 10 mg; endpoint = grade 1 or 2 intestinal obstruction; value = 0%
Structure (SMILES) = C[C@]1(CO)Cc2ncn(-c3ccc(C#N)c(Cl)c3)c2C(=O)O1; test system = human; setting = 40 mg multiple doses, fasted; endpoint = subjects with drug-related dizziness; value = 0%
Structure (SMILES) = Cn1cc(-c2nc(N[C@@H]3CCCC[C@@H]3N)c(F)c3c2C(=O)NC3)cn1; assay = any bleeding; test system = patients with relapsed or refractory AML; setting = oral, 160 mg once daily; endpoint = adverse events; value = 67%
Structure (SMILES) = CN1CCN(S(=O)(=O)c2cc([N+](=O)[O-])ccc2N(CCOS(C)(=O)=O)CCOS(C)(=O)=O)CC1; test system = naive NOD/SCID mice, pooled blood; setting = intraperitoneal, 12.5 mg/kg, week 4; endpoint = blood urea nitrogen; value = 11.4 mmol/L
Structure (SMILES) = C[C@H](O)c1cnc(NS(=O)(=O)c2ccc(C(F)(F)F)c(Cl)c2)nc1; test system = hepatocytes, HSD17B13 knockout with AAV control, C57BL/6J mouse, male; setting = 1 µM; endpoint = scaled intrinsic clearance; value = < 20 mL/min/kg
Structure (SMILES) = N=C(N)NCCC[C@@H](NC(=O)[C@@H](N)Cc1ccccc1)C(=O)N[C@@H](Cc1ccccc1)C(=O)N[C@@H](CCCCN)C(N)=O; assay = LC-MS; test system = human; setting = 5 mg, 5.833 h; endpoint = mean amount excreted in urine; value = 1.08e+06 ng
Structure (SMILES) = O=C1Nc2cc3[nH]nc(-c4ccncc4)c3cc2CN1Cc1ccccc1; assay = measured: increased GGT; test system = patients with advanced solid tumours; setting = intravenous, dose not given, both schedules pooled; endpoint = patients with TEAE; value = 18%
Structure (SMILES) = C[C@@H](NC(=O)N1C(=O)[C@H](Cc2ccnc(N)c2)[C@H]1C(=O)O)C1CCCCC1; test system = healthy adult Chinese volunteers; setting = continuous intravenous infusion, 0.3 mg/kg/h, 5-day infusion, CTCAE 5.0 grading; endpoint = incidence of elevated neutrophil; value = 12.5%
Structure (SMILES) = CC(C)CC(=O)OC[C@H]1O[C@@](C#N)(c2ccc3c(N)ncnn23)[C@H](O)[C@@H]1O; test system = human whole blood; setting = 5 µM, 15 min; endpoint = remaining compound; value = 22.4 ± 1.69%
Structure (SMILES) = NC(=O)[C@H]1CCN(c2ncnc(N)c2F)C[C@@H]1N1CCC[C@@H](Nc2cc(Cl)cc(C(F)(F)F)c2)C1=O; test system = B-cell malignancy patients; setting = oral, 246 mg twice daily, dose; endpoint = grade ≥3 hyponatraemia; value = 0%
Structure (SMILES) = O=C(O)CCCOc1ccc(F)cc1-c1cc(-c2ccccc2C(F)(F)F)n(-c2ccccc2)n1; test system = female Crl:CD(SD) rats, lungs; setting = intravenous, 25 µg/kg, 1 d; endpoint = relative organ weight; value = 0.46 ± 0.03 g%
Structure (SMILES) = OCc1cn(Cc2cccc(Cl)c2)c2ccccc12; test system = F344 rat, male, affected animals, liver; setting = oral, 150 mg/kg/day, 2 days, score 0 to 4, mean; scale = direction not given; endpoint = liver toxicity severity score; value = 4
Structure (SMILES) = Cn1ncc(-c2nc(N[C@H]3CC[C@H](N)CC3)ncc2Cl)c1CC1CC1; assay = measured: emesis any grade; test system = human patients phase I; setting = dose not given; endpoint = adverse event incidence; value = 63%
Structure (SMILES) = CN[C@H]1CC[C@@H](c2ccc(Cl)c(Cl)c2)c2ccccc21; test system = CD-1 mouse, male, plasma; setting = intraperitoneal, 3 mg/kg; endpoint = AUC(0-inf); value = 243 ng·h/mL
Structure (SMILES) = Nc1nc2cc(-c3ccc4ncc(C(=O)N5CCOCC5)n4c3)ccc2o1; assay = measured: Constipation; test system = advanced solid tumour patients; setting = dose not given, all grades, all doses; endpoint = patients with adverse event; value = 35%
Structure (SMILES) = CC(C)(O)c1cc(Nc2cc(Oc3cn(C4CC4)nc3C3CCOCC3)ccn2)ccn1; assay = Vomiting; test system = patients with advanced cancer, Japanese cohort; setting = oral, dose not given, grade ≥3; endpoint = treatment-related adverse events; value = 0%
Structure (SMILES) = O=S(=O)([O-])C(F)(F)C(F)(F)C(F)(F)C(F)(F)C(F)(F)C(F)(F)C(F)(F)C(F)(F)F.[K+]; assay = RT-qPCR, measured: Cyp2b10; test system = EtOH-fed mice, liver; setting = dose not given; scale = baseline: efavirenz; endpoint = mRNA level; value = increased
Structure (SMILES) = Cc1c(COC(=O)[C@@H]2[C@H](/C=C(\Cl)C(F)(F)F)C2(C)C)cccc1-c1ccccc1 (racemic); assay = measured: CYP3A4; test system = human, age 5 years, recombinant human CYP3A4; setting = 0.1 µM; endpoint = enzyme contribution to clearance; value = 17.5%
Structure (SMILES) = COc1cccc(Oc2ccccc2NC(=O)CNC(=O)c2cccc3ccccc23)c1; test system = esterase-deficient SCID mice, male; setting = oral, 40 mg/kg/day, 14 days, toxicity study; endpoint = blood urea nitrogen; value = 32 mg/dL and 37 mg/dL and 35 mg/dL
Structure (SMILES) = CCCCCCCCCCCCCCCC(=O)N[C@@H](CCC(=O)NCCCC[C@H](NC(=O)[C@H](CC(=O)O)NC(=O)[C@H](CO)NC(=O)[C@@H](NC(=O)[C@H](Cc1ccccc1)NC(=O)[C@@H](NC(=O)CNC(=O)[C@H](CCC(N)=O)NC(=O)[C@H](CO)NC(=O)[C@@H](N)Cc1c[nH]cn1)[C@@H](C)O)[C@@H](C)O)C(=O)N[C@@H](CO)C(=O)N[C@@H](CCC(=O)O)C(=O)N[C@@H](Cc1ccc(O)cc1)C(=O)N[C@@H](CC(C)C)C(=O)N[C@@H](CC(=O)O)C(=O)N[C@@H](CO)C(=O)N[C@@H](CCC(=O)O)C(=O)N[C@@H](CCCNC(=N)N)C(=O)N[C@@H](C)C(=O)N[C@@H](CCCNC(=N)N)C(=O)N[C@@H](CC(=O)O)C(=O)N[C@@H](Cc1ccccc1)C(=O)N[C@H](C(=O)N[C@@H](C)C(=O)N[C@@H](Cc1c[nH]c2ccccc12)C(=O)N[C@@H](CC(C)C)C(=O)N[C@@H](CCC(=O)O)C(=O)N[C@@H](C)C(=O)NCC(=O)NCC(=O)O)C(C)C)C(=O)O; test system = human, CrCl ≥45 to <60 mL/min; setting = sc, 100 µg single dose; endpoint = treatment-related adverse events; value = 42.9%
Structure (SMILES) = O=S(=O)(Nc1ccccc1)c1ccc(NC(=S)Nc2ccccc2)cc1; assay = measured: Glu; test system = female mouse, blood; setting = oral, 5 mg/kg daily, 14 days; endpoint = blood chemistry level; value = 213 mg/dL
Structure (SMILES) = COc1ncccc1-c1cnn2ccc(N3CCN(C(=O)OC(C)C)CC3)nc12; test system = mouse nerve ligation model, plasma; setting = oral, 30 mg/kg, 120 min after last dose, repeat dosing day 2; endpoint = drug concentration; value = 5.8 µM
Structure (SMILES) = CC(C)[C@H](O)C(=O)N[C@H]1Cc2ccc3c(c2)[C@]2(C4=C(c5nc(CO)co5)N=C(O4)[C@H](C(C)(C)C)NC1=O)c1cc(F)ccc1N[C@@H]2O3; test system = NSG mice, plasma; setting = intravenous, 10 mg/kg, single dose at MTD, with: paclitaxel 40 mg/kg; endpoint = AUC(0-t); value = 1860 ng·h/mL
Structure (SMILES) = CCc1ccc(CC/C=C/c2ccc3c(c2)C(=O)CC3)cc1; test system = Sprague-Dawley rat, male; setting = oral, 30 mg/kg/day, 14 days; endpoint = TG; value = 0.45 mM
